Results of several laboratories.
Each line is one published result; not all experiments were run side by side.
Organism: Pseudomonas aeruginosa

CN(C)c1ccc2nc3ccc(=[N+](C)C)cc-3sc2c1
MIC (ATCC BAA-2108, resistant; 18 h, 37 °C, LED light 10 min, 1.57 mW): > 128 µM

N=C(N)c1ccc(OCc2ccc(Br)cc2COc2ccc(C(=N)N)cc2)cc1
MIC (ATCC 27853; compound alone): 200 µg/mL

CC(C)(O/N=C(\C(=O)N[C@@H]1C(=O)N2C(C(=O)[O-])=C(C[n+]3ccccc3)CS[C@H]12)c1csc(N)n1)C(=O)O
MIC (R16-49 PER-producing isolate): > 128 µg/mL

NCCCC[C@H](NC(=O)[C@H](Cc1ccccc1)NC(=O)[C@H](CCC(N)=O)NC(=O)[C@H](Cc1ccccc1)NC(=O)[C@H](CCC(N)=O)NC(=O)[C@@H](N)Cc1ccccc1)C(N)=O
MIC (broth microdilution, optical density): 520 µM

CC(C)Oc1c(NC(=O)c2ccc(NC(=O)[C@H](CC(N)=O)NC(=O)c3ccc(NC(=O)c4ccc(C#N)c(Cl)c4)cc3)cc2)ccc(C(=O)Nc2ccc(C(=O)O)cc2)c1O
MIC (PA14 ΔmexAB): 0.25 µg/mL

C[C@@H](O)[C@H]1C(=O)N2C(C(=O)O)=C(SCCN=CN)C[C@H]12
MIC (broth microdilution, MH medium; KCCM 11328; 16 h, 37 °C, growth inhibition over 99%): 1 µM

CC1(C)S[C@@H]2[C@H](NC(=O)[C@H](N)c3ccccc3)C(=O)N2[C@H]1C(=O)O
MIC (ATCC 27853; 18 h, 37 °C, dark): > 128 µM

CO/N=C(\C(=O)N[C@@H]1C(=O)N2C(C(=O)O)=C(COC(C)=O)CS[C@H]12)c1csc(N)n1
MIC (CIP 27853, Mueller Hinton broth; 37 °C): < 0.5 µg/mL

CNC(C)C1CCC(N)C(OC2C(N)CC(N)C(OC3OCC(C)(O)C(NC)C3O)C2O)O1 (stereo not shown)
MIC (clinical isolate P.A19, RPMI with 10% FBS; 37 °C): 32 µM

CNC(C)C1CCC(N)C(OC2C(N)CC(N)C(OC3OCC(C)(O)C(NC)C3O)C2O)O1 (stereo not shown)
MIC (clinical isolate RKI-No_496/15): 4 µg/mL

C=C/C=C(\C)CC[C@H]1C[C@@H](O)CC(=O)O1
MIC (broth microdilution; KCCM 11321; 16 h, 37 °C, Mueller-Hinton broth): 64 µg/mL

CC1(C)S[C@@H]2[C@H](NC(=O)[C@H](N)c3ccccc3)C(=O)N2[C@H]1C(=O)O
MIC (broth microdilution; clinical isolate, Mueller-Hinton broth; 24 h, 37 °C): > 400 µM

CC(C)Oc1c(-n2cc(-c3ccc(NC(=O)C(CC(N)=O)NC(=O)c4ccc(NC(=O)c5ccc(C#N)cc5)cc4)cc3)nn2)ccc(C(=O)Nc2ccc(C(=O)O)cc2)c1O (stereo not shown)
MIC (PA14 ΔmexAB): 2 µg/mL

N=C(N)c1ccc(OCc2ccc(-c3ccccc3)cc2COc2ccc(C(=N)N)cc2)cc1
MIC (ATCC 27853; compound alone): 100 µg/mL

CC[C@H](C)CCCCC(=O)N[C@@H](CCN)C(=O)N[C@H](C(=O)N[C@@H](CCN)C(=O)N[C@H]1CCNC(=O)[C@H]([C@@H](C)O)NC(=O)[C@H](CCN)NC(=O)[C@H](CCN)NC(=O)[C@H](CC(C)C)NC(=O)[C@@H](CC(C)C)NC(=O)[C@H](CCN)NC1=O)[C@@H](C)O
MIC (broth microdilution; ATCC 13883, cation-adjusted Mueller-Hinton broth): 0.428 µM

N=C(N)c1ccc(OCCCCCOc2ccc(C(=N)N)cc2)cc1
MIC (ATCC 27853; compound alone): > 200 µg/mL

NC[C@H]1O[C@H](O[C@H]2[C@H](O)[C@@H](O[C@H]3O[C@H](CO)[C@@H](O)[C@H](N)[C@H]3O)[C@H](N)C[C@@H]2N)[C@H](O)[C@@H](O)[C@@H]1O
MIC (broth microdilution; C5 clinical isolate): 32 µM

CCN1CCN(C(=O)N[C@@H](C(=O)N[C@@H]2C(=O)N3[C@@H]2SC(C)(C)[C@@H]3C(=O)O)c2ccccc2)C(=O)C1=O
MIC (R13-94 PER-producing isolate): > 128 µg/mL

c1ccc2[nH]c(CNCC34CC5CC(CC(C5)C3)C4)nc2c1
MIC (ATCC 27853): > 128 µg/mL

CC[C@H](C)[C@H](NC(=O)[C@H](CCCCN)NC(=O)[C@H](CCC(=O)O)NC(=O)[C@H](CCCCN)NC(=O)[C@H](CO)NC(=O)[C@H](CCCCN)NC(=O)[C@H](CCCNC(=N)N)NC(=O)[C@H](Cc1ccccc1)NC(=O)[C@H](Cc1ccccc1)NC(=O)[C@H](CC(=O)O)NC(=O)CNC(=O)[C@H](CC(C)C)NC(=O)[C@@H](N)CC(C)C)C(=O)NCC(=O)N[C@@H](CCCCN)C(=O)N[C@@H](CCC(=O)O)C(=O)N[C@@H](Cc1ccccc1)C(=O)N[C@@H](CCCCN)C(=O)N[C@@H](CCCNC(=N)N)C(=O)N[C@H](C(=O)N[C@H](C(=O)N[C@@H](CCC(N)=O)C(=O)N[C@@H](CCCNC(=N)N)C(=O)N[C@H](C(=O)N[C@@H](CCCCN)C(=O)N[C@@H](CC(=O)O)C(=O)N[C@@H](Cc1ccccc1)C(=O)N[C@@H](CC(C)C)C(=O)N[C@@H](CCCNC(=N)N)C(=O)N[C@@H](CC(N)=O)C(=O)N[C@@H](CC(C)C)C(=O)N[C@H](C(=O)N1CCC[C@H]1C(=O)N[C@@H](CCCNC(=N)N)C(=O)N[C@H](C(=O)N[C@@H](CCC(=O)O)C(=O)N[C@@H](CO)C(=O)O)[C@@H](C)O)C(C)C)[C@@H](C)CC)C(C)C)[C@@H](C)CC
MIC (CMCC 10104; highest concentration 50 µM): 22.3 µM

C[C@H](N)C(=O)N[C@H](C(=O)N[C@@H](CS)C(=O)N[C@@H](Cc1ccc(O)cc1)C(=O)N[C@@H](CS)C(=O)N[C@@H](CCCNC(=N)N)C(=O)N[C@H](C(=O)NCC(=O)N[C@@H](CCCNC(=N)N)C(=O)N[C@@H](CS)C(=O)N[C@@H](C)C(=O)N[C@H](C(=O)N[C@@H](CCCNC(=N)N)C(=O)O)[C@@H](C)O)[C@@H](C)O)[C@@H](C)O
MIC (broth turbidity; ATCC 27853): > 100 µM

c1ccc(OCCn2c(CNC34CC5CC(CC(C5)C3)C4)nc3ccccc32)cc1
MIC (ATCC 27853): > 128 µg/mL

NC[C@H]1O[C@H](O[C@H]2[C@H](O)[C@@H](O[C@H]3O[C@H](CO)[C@@H](O)[C@H](N)[C@H]3O)[C@H](N)C[C@@H]2N)[C@H](O)[C@@H](O)[C@@H]1O
MIC (broth microdilution; PA14): 110 µM

O=C(Cc1ccccc1)N[C@@H]1C(=O)N2C(C(=O)O)=C(CSc3cccc4cccnc34)CS(=O)(=O)[C@H]12
MIC (27853): > 128 µg/mL

Cc1cc(C#N)ccc1C(=O)Nc1ccc(C(=O)N[C@@H](CC(N)=O)C(=O)Nc2ccc(C(=O)Nc3ccc(C(=O)Nc4ccc(C(=O)O)cc4)c(O)c3OC(C)C)cc2)cc1
MIC (PA14 ΔmexAB): 2 µg/mL

Some of these lines once more:
c1ccc(OCCn2c(CNC34CC5CC(CC(C5)C3)C4)nc3ccccc32)cc1
MIC (ATCC 27853): > 128 µg/mL

NC[C@H]1O[C@H](O[C@H]2[C@H](O)[C@@H](O[C@H]3O[C@H](CO)[C@@H](O)[C@H](N)[C@H]3O)[C@H](N)C[C@@H]2N)[C@H](O)[C@@H](O)[C@@H]1O
MIC (broth microdilution; PA14): 110 µM

O=C(Cc1ccccc1)N[C@@H]1C(=O)N2C(C(=O)O)=C(CSc3cccc4cccnc34)CS(=O)(=O)[C@H]12
MIC (27853): > 128 µg/mL

C[C@H](N)C(=O)N[C@H](C(=O)N[C@@H](CS)C(=O)N[C@@H](Cc1ccc(O)cc1)C(=O)N[C@@H](CS)C(=O)N[C@@H](CCCNC(=N)N)C(=O)N[C@H](C(=O)NCC(=O)N[C@@H](CCCNC(=N)N)C(=O)N[C@@H](CS)C(=O)N[C@@H](C)C(=O)N[C@H](C(=O)N[C@@H](CCCNC(=N)N)C(=O)O)[C@@H](C)O)[C@@H](C)O)[C@@H](C)O
MIC (broth turbidity; ATCC 27853): > 100 µM
